Experimental data of several laboratories.
Each line is one published result; not all experiments were run side by side. Values joined by “and” are separate records of one study, mostly repeats; a detail may differ. ± gives the spread as reported.

SMILES | test | system | setting | how to read | endpoint | value
CCCCCCCC(=O)N[C@@H](CCCCNS(=O)(=O)c1cccc2c(N(C)C)cccc12)C(=O)N[C@H](C(=O)N[C@@H](CCN)C(=O)N[C@H]1CCNC(=O)[C@H]([C@@H](C)O)NC(=O)[C@H](CCN)NC(=O)[C@H](CCN)NC(=O)[C@H](CC(C)C)NC(=O)[C@@H](Cc2ccccc2)NC(=O)[C@H](CCN)NC1=O)[C@@H](C)O | fluorescence | whole bacterial cells | pH 7.0 | – | emission maximum | ~500 nm
COC(=O)C[C@](O)(CCCC(C)(C)OC(C)=O)C(=O)O[C@@H]1C(OC)=C[C@]23CCCN2CCc2cc4c(cc2[C@H]13)OCO4 | – | CD1 mouse, spleen | subcutaneous, 1 mg/kg, 8 h, below quantification limit 1.00 ng/mL | – | tissue concentration | not detected
CC[C@@H](C)[C@H](NC(=O)[C@H](C)NC(=O)[C@H](CCCCN)NC(=O)[C@H](CC(C)C)NC(=O)[C@H](C)NC(=O)[C@@H](NC(=O)[C@H](Cc1c[nH]cn1)NC(=O)[C@H](CC(C)C)NC(=O)[C@@H](NC(=O)[C@@H](NC(=O)[C@H](CCCCN)NC(=O)[C@H](CCCCN)NC(=O)[C@H](C)NC(=O)[C@H](CO)NC(=O)[C@H](CCCCN)NC(=O)[C@H](Cc1ccccc1)NC(=O)[C@@H](NC(=O)[C@H](CCCCN)NC(=O)[C@H](CC(C)C)NC(=O)[C@H](Cc1ccccc1)NC(=O)[C@H](CO)NC(=O)[C@H](CCCCN)NC(=O)[C@H](Cc1c[nH]c2ccccc12)NC(=O)[C@H](CCCCN)NC(C)=O)[C@@H](C)O)[C@@H](C)O)C(C)C)[C@@H](C)O)C(=O)N[C@@H](CO)C(=O)N[C@@H](CO)C(N)=O | circular dichroism at 222 nm | KCl phosphate buffer | 75 µM, pH 7.4, 65 °C | – | mean residue ellipticity | -3000 deg cm² dmol⁻¹
COc1cc(-c2cncc(-c3ccc(N4CCN([11CH3])CC4)cc3)c2C)cc(OC)c1OC | dynamic PET | Sprague-Dawley rats male, whole brain | intravenous, 16 to 23 MBq | – | peak SUV | 1.8 and ~2
CSCC[C@@H]1NC(=O)[C@@H]2CSSC[C@H](NC(=O)[C@H](CO)NC(=O)[C@H](C)N)C(=O)N[C@@H](CCCNC(=N)N)C(=O)N[C@@H]([C@@H](C)O)C(=O)N3CCC[C@H]3C(=O)N[C@@H](CCCCN)C(=O)N[C@@H](CC(=O)O)C(=O)N[C@H]3CSSC[C@H](NC(=O)[C@H](CCCCN)NC(=O)[C@H](CCCNC(=N)N)NC(=O)[C@H](CC(N)=O)NC1=O)C(=O)N[C@@H](CCCCN)C(=O)N[C@H]1CSSC[C@H](NC(=O)[C@@H]4CCCN4C(=O)[C@H](CC(=O)O)NC(=O)[C@H](C)NC3=O)C(=O)N[C@@H](C)C(=O)N[C@@H](CCCCN)C(=O)N[C@@H](CCC(=O)O)C(=O)N[C@@H]([C@@H](C)O)C(=O)NCC(=O)N[C@@H](CSSC[C@@H](C(N)=O)NC(=O)[C@H](CCCNC(=N)N)NC(=O)[C@H](CC(N)=O)NC1=O)C(=O)N1CCC[C@H]1C(=O)N[C@@H](Cc1ccc(O)cc1)C(=O)NCC(=O)N[C@@H](CCCCN)C(=O)N2 | – | DA rat, pristane-induced arthritis, serum | subcutaneous, 0.1 mg/kg once weekly, end of 21-day trial | – | indirect bilirubin | 0 mg/dL
CC[C@@H]1C[C@]1(NC(=O)[C@@H]1C[C@@]2(CN1C(=O)[C@@H](NC(=O)[C@@H](NC(=O)[C@@H]1CCCCN1C(C)C)C1CCCCC1)C(C)(C)C)C(C)(C)C21CCC1)C(=O)NS(=O)(=O)N1CCCC1 | – | human, plasma | oral, dose not given, with: ritonavir | – | terminal half-life | ~11.5 h
C[C@@H]1CC[C@H]2[C@@H](C)CO[C@@H]3O[C@@]4(C)CC[C@@H]1[C@]32OO4 | item: compound | rat, plasma | 2.00 ng/mL spiked, 30 days, long-term storage at -80 °C | – | measured concentration | 2.04 ± 0.05 ng/mL
COc1ccc(C)cc1NC(=O)OC1CC2CCCC(C1)N2Cc1ccc(CC[18F])cc1 (stereo not shown) | – | BALB/c mice, EMT6 tumour, brain | 30 min | – | tissue uptake | 2.12 ± 0.21 %ID/g
CC(C)C[C@H](NC(=O)[C@H](CCCCN)NC(=O)[C@H](CCC(=O)O)NC(=O)[C@H](C)NC(=O)[C@@H](NC(=O)[C@H](CCCCN)NC(=O)[C@H](CC(=O)O)NC(=O)[C@H](Cc1ccc(O)cc1)NC(=O)[C@H](Cc1ccccc1)NC(=O)[C@H](C)NC(=O)[C@H](CCCCN)NC(=O)[C@H](CC(C)C)NC(=O)[C@H](Cc1c[nH]c2ccccc12)NC(=O)[C@@H](N)CC(=O)O)C(C)C)C(=O)N[C@@H](CCCCN)C(=O)N[C@@H](CCC(=O)O)C(=O)N[C@@H](C)C(=O)N[C@@H](Cc1ccccc1)C(=O)N1CCC[C@H]1C(=O)N[C@@H](CC(=O)O)C(=O)N[C@@H](Cc1c[nH]c2ccccc12)C(=O)N[C@@H](C)C(=O)N[C@@H](CCCCN)C(=O)N[C@@H](C)C(=O)N[C@@H](C)C(=O)N[C@@H](Cc1ccc(O)cc1)C(=O)N[C@@H](CC(=O)O)C(=O)N[C@@H](CCCCN)C(=O)N[C@@H](C)C(=O)N[C@@H](C)C(=O)N[C@@H](CCC(=O)O)C(=O)N[C@@H](CCCCN)C(=O)N[C@@H](C)C(=O)N[C@@H](CCCCN)C(=O)N[C@@H](CCC(=O)O)C(=O)N[C@@H](C)C(=O)N[C@@H](C)C(=O)O | – | cynomolgus monkey male, plasma | intravenous infusion, 8 mg/kg every other day, day 27 | – | AUC(0-inf) | 607 µg·h/mL
CC(=O)[O][Cu+].CN1CCN2CCN(C)CCN(CC1)CC2 | cyclic voltammetry, item: Cu(II)/Cu(I) | acetonitrile | 1 mM, copper acetate complex | relative to: SHE | reduction potential | -0.893 V

Excerpt of the above:
SMILES | test | system | setting | how to read | endpoint | value
CSCC[C@@H]1NC(=O)[C@@H]2CSSC[C@H](NC(=O)[C@H](CO)NC(=O)[C@H](C)N)C(=O)N[C@@H](CCCNC(=N)N)C(=O)N[C@@H]([C@@H](C)O)C(=O)N3CCC[C@H]3C(=O)N[C@@H](CCCCN)C(=O)N[C@@H](CC(=O)O)C(=O)N[C@H]3CSSC[C@H](NC(=O)[C@H](CCCCN)NC(=O)[C@H](CCCNC(=N)N)NC(=O)[C@H](CC(N)=O)NC1=O)C(=O)N[C@@H](CCCCN)C(=O)N[C@H]1CSSC[C@H](NC(=O)[C@@H]4CCCN4C(=O)[C@H](CC(=O)O)NC(=O)[C@H](C)NC3=O)C(=O)N[C@@H](C)C(=O)N[C@@H](CCCCN)C(=O)N[C@@H](CCC(=O)O)C(=O)N[C@@H]([C@@H](C)O)C(=O)NCC(=O)N[C@@H](CSSC[C@@H](C(N)=O)NC(=O)[C@H](CCCNC(=N)N)NC(=O)[C@H](CC(N)=O)NC1=O)C(=O)N1CCC[C@H]1C(=O)N[C@@H](Cc1ccc(O)cc1)C(=O)NCC(=O)N[C@@H](CCCCN)C(=O)N2 | – | DA rat, pristane-induced arthritis, serum | subcutaneous, 0.1 mg/kg once weekly, end of 21-day trial | – | indirect bilirubin | 0 mg/dL
